Measurements of several laboratories.
Numbered parts are unrelated; each lists some results of a single study.

Sample 1 — technique: RNA Bind-n-Seq; molecule type: RNA; sample: in vitro; concentration: 365 nM; relative to: no-protein control; direction: higher = stronger binding
Target: RNA binding protein fox-1 homolog 2, RRM domain, GST-SBP tag (RBFOX2, Homo sapiens, UniProt O43251-10, residues 100-194)
Setting: natural RNA segment, single round, ends assumed
Constant ends, left off below: GGGAGUUCUACAGUCCGACGAUC … UGGAAUUCUCGGGUGCCAA
Target sequence (chain): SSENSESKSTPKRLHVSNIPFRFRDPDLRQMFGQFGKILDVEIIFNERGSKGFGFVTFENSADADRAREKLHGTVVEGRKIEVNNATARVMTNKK
Under “RBNS enrichment (R)”, `UCCUAGAAUUCUUACUAGUGAAAUCUUACCCAAGUAAAACAAUUUAUUAUUUUGAAUCCAAAUGAAAGCUAUACUGUUUGCUUUCAAUGGUGGCAAAAACUUGCAAAAAG` is recorded as 0.562.
`UAACUCCUCAUUGUAAACAAACUGUGUAACUGCCCAAAGCAGCACUUAUAAAUCAGCCUAACAUAAGUCUCUCUGAUGUGUUUGUGAUUCUUUCAAAUCCCUAUGUGCCA` — result for “RBNS enrichment (R)”: 0.727.
`UCGUUUGUCCUCAGUAAGAGCUGAAUCCUUAAAAAUUUAAGAAACUACUUUCAGCUUCCUGCUCCACCCCUGGCUUGCAAGCCCUCUUUUUGGCCCCUAUUGAGGAUGAA` — result for “RBNS enrichment (R)”: 0.373.
Under “RBNS enrichment (R)”, `CCAAAAUCUUUGUAGUGUGCAGAGCGGUGGUUUGAGACUAAAUACAGGCUUAGAACUUGCAGAGUGUGUAUUCUUGGAUGGCUGAUGCAUCGACUUGCAUUCCCACUUAA` is recorded as 1.13.
Under “RBNS enrichment (R)”, `UCAAAGGAGUUUGUGAAAAAAAAUCCAUGGUGAAAAUGAAACAAUGACAUGGUUAAUCUGGAACUUACGUUCUUAUACCAAUAAAAGGUACCUCAAUACAUGUUCUUUCA` is recorded as 0.633.
Under “RBNS enrichment (R)”, `UAUAGGGGACUUGAGGGAGUGCCACGUGCUGAACUUGUGAUAUCCUUUGCUAAACCAGAGGAUAAAAAAGGAGAGUAUGAGUACAUAAAAAUCUAUCUUUGAUACAUUUU` is recorded as 0.31.
`CUUGAUCCUGUAGUUGGUUUUGACCUGGUGUGGUCCCUCCAUGCUGUGGAAGUGAAAUGUGAGGGAACAGGCCUGGGGGCAGUGAGGGAGACAGGACAAGCCUUUCAUCU`: “RBNS enrichment (R)” 0.575.
Under “RBNS enrichment (R)”, `GGAUGGAUGGCAGGGAAUAGAAGCUAGGACUGGAGUUCCUGUCCUGCCGCCUUGGUUCCUGCAGUGCCCUGCGGUGCGGACAGGACUGCAUCUGAUAGUACACAGACUGA` is recorded as 0.606.

Sample 2 — technique: protein-binding microarray; molecule type: double-stranded DNA, one strand shown; sample: in vitro; concentration: 2540 nM top; setting: 60-bp whole probe; added: salmon DNA 0.4 mg/ml; relative to: random background probes; direction: higher = stronger binding; constant ends, left off below: GCCTAGCAC … GTCTTGATTCGCTTGACGCTGCTG
Target: Interferon regulatory factor 3, full length, phosphomimetic (IRF3, Homo sapiens, UniProt Q14653, residues 1-427, S386D/S396D/S398D/S402D/T404D/S405D)
Sequence of UniProt Q14653 (whole entry, unmodified, looked up): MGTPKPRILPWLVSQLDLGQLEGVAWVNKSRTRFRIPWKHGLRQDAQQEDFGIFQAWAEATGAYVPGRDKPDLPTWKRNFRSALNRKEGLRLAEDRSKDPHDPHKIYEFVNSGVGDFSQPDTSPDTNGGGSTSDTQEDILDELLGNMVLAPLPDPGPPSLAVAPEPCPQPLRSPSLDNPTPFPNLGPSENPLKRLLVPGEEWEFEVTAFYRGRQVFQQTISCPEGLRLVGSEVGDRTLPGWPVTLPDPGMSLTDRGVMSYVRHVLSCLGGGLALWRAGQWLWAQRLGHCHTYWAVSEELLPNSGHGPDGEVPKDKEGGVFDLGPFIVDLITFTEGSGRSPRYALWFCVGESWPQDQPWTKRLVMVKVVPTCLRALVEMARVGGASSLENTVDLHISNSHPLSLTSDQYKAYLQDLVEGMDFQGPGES
`GGATGACTCCCTCTCTGGCCGTGCTAG`: “fitted relative affinity” 0.306 z-score.
`TCAATTCCTGATCTCTGACTGTGCTAG`: “fitted relative affinity” 1.17 z-score.
`GACGGTATCGACTGTCGGGACGTGCTA` — result for “fitted relative affinity”: 0.17 z-score.
Under “fitted relative affinity”, `GACGTTATCAGTTTCGAGACGTGCTAG` is recorded as 3.59 z-score.
`TTAGAAATGAGTATCGATTAGTGCTAG` — result for “fitted relative affinity”: 0.266 z-score.
Under “fitted relative affinity”, `GACGGTTTCTGTCTCGGGACGTGCTAG` is recorded as 5.14 z-score.
`TTAGGTTTCTTTATCCTTTAGTGCTAG`: “fitted relative affinity” 3.36 z-score.
`TTAAATTTCAGTTTCGATTAGTGCTAG` — result for “fitted relative affinity”: 6.01 z-score.
Under “fitted relative affinity”, `CACGAACTGGGGACTGGAGACGTGCTA` is recorded as -0.547 z-score.
`CAGAATCCCCTTCTACTCTCGTGCTAG`: “fitted relative affinity” 2.47 z-score.
`ATTGGTTGAACATGAACTTCGTGCTAG`: “fitted relative affinity” -0.432 z-score.
`GACGGACTGGGACTGGGGCCGTGCTAG` — result for “fitted relative affinity”: -0.999 z-score.
For `GACGAACTGAGTATCGAGCCGTGCTAG`, “fitted relative affinity” read -0.275 z-score.
Under “fitted relative affinity”, `TTAGCACTGGGTCTCGGTTAGTGCTAG` is recorded as -0.737 z-score.
`TCACCTTGATGTCTGGGACTGTGCTAG` — result for “fitted relative affinity”: -0.0184 z-score.
`AGTATGTTCCCTATTTAAGGGTGCTAG` — result for “fitted relative affinity”: 2.71 z-score.
`TCATTTTTAGCTTGCAAACTGTGCTAG`: “fitted relative affinity” 1.18 z-score.
`TTAGAACGGGGGTATCGATTAGTGCTA`: “fitted relative affinity” 0.337 z-score.
Under “fitted relative affinity”, `TCATTTCTTTAACTCATACTGTGCTAG` is recorded as 2.3 z-score.

Sample 3 — technique: RNA Bind-n-Seq; molecule type: RNA; sample: in vitro; concentration: not given; setting: RNA with constant flanks, ends assumed; relative to: input RNA pool; direction: higher = stronger binding
Target: RING finger protein unkempt homolog, zinc fingers 1-6, GST-SBP tag (UNK, Homo sapiens, UniProt Q9C0B0, residues 30-357)
Constant ends, left off below: GGGAGUUCUACAGUCCGACGAUC … CAACAGAGGAUUGAGCAUCA
Construct (chain): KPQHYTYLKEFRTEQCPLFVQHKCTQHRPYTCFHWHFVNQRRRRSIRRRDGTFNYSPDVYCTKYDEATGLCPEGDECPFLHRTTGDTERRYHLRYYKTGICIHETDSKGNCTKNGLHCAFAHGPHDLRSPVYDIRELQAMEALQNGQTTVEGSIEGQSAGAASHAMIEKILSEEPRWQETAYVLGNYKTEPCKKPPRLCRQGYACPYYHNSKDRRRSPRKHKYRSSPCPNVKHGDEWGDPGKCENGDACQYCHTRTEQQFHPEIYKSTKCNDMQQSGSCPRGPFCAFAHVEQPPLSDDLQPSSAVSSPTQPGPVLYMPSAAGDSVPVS
With `CAUGACAGCAACACUGAUAUGUUUCAGAUUGGUCGGUCAACUGAAAGUCCUAUUGAUUUUGCCGUAACUGACACCGUUCCUGGAAGUCAGAGUAAUUCCGACACGCAGUCAGUACAAAGC` the bound/input enrichment was 0.0666 ratio.
The bound/input enrichment of `UAGCGCCAUCUCAAAGGCCAUCUUUCCACCCUGGCAUGUGGCUAGGGUGUGUCCUGGAUCCACCGGGUGGGAGGAGGAGCCAGAUGGGUUUAUGAUACAUGGCUGUUUGAGAGUUCCCAU` is reported as 0.0649 ratio.
For `AAGAUCUCUGAUGAUCUGAUGCAGAAGAUCAGUACUCAGAACCGCCGGGCCCUAGACCUUGCCGCCGCAAAGUGUUACUAUUAUCACGCCCGGGUCUAUGAGUUCCUGGACAAGCUGGAU`, the bound/input enrichment was 0.151 ratio.
`GCUUACAAAAUCAAAUACCCGGAGAACUUCUUUCUUCUAAGAGGAAACCAUGAGUGUGCCCGCAUCAAUCGCAUUUAUGGAUUCUACGAUGAGUGUAAACGAAGAUUUAAUAUUAAAUUG` has a bound/input enrichment of 0.299 ratio.
With `AGCGAGCGAAAUCUUUGUACUUCUGAGUUCUUGCUGUAUGUAUGUUUUGUUUUAAAUCUGAUCCGGGACACCCAGCAGCUGGCCGGGAUUCUUGGAUUGCUCCUUGGGAGUUAAGAUUGU` the bound/input enrichment was 0.119 ratio.
`CACAAGGAGCAGGCGGCCCAGCUGCGGAACCUGGUGCAGUGUGGUGACUUUCCUCAUCUGUCCGUGUACGGACCAUCAGGUGCUGGAAAAAAGACAAGAAUUAUGUGUAUUCUACGUGAA` has a bound/input enrichment of 0.0947 ratio.
The bound/input enrichment of `AAUCCACCUUACAGAGAGGAAGACAUACCAGCUCCCCUAAAUUUGUAUGGCAAAACAAAAUCCGAUGGAGAAAAGGCUGUCCUGGAGAACAAUCUAGGAGCUGCUGUUUUGAGGAUUCCU` is reported as 0.116 ratio.
`UACAGCCUGGGCUCUAUGAAACUGUUUUAAACAAACAAAACAAAGAUGCCACCUCUAACUCCGUUGGCAGGGUUAGAGACUCAAUACAGUGCCAAACUUUAUAAAAAUAAACUGUGCUCU` gave a bound/input enrichment of 0.244 ratio.

Sample 4 — technique: RNAcompete; molecule type: RNA; sample: in vitro; concentration: 20 nM; setting: 7-mer, probes averaged, single round; relative to: mean of 7-mers; direction: higher = stronger binding
Target: PABPC1L2, full length, GST fusion (mouse, UniProt A0ABA7IW68)
Target sequence (chain): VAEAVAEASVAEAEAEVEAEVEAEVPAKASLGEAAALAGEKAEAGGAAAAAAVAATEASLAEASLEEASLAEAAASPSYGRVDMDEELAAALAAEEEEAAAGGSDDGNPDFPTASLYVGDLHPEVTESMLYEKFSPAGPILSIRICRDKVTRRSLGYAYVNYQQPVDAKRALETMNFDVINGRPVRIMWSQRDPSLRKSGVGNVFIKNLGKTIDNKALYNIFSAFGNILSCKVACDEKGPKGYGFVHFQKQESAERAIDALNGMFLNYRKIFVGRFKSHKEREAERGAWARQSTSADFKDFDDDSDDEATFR
With `CCCGGAU` the 7-mer Z-score was -0.133.
`GUGAGAC` has a 7-mer Z-score of -0.164.
For `AACCUAG`, the 7-mer Z-score was -0.0736.
`CAUAGUC` gave a 7-mer Z-score of -0.249.
`AAACUGG` has a 7-mer Z-score of 1.31.
For `UUGUAUA`, the 7-mer Z-score was -0.148.
The 7-mer Z-score of `GGGGACU` is reported as 0.336.
For `UGAGCUC`, the 7-mer Z-score was -0.374.
`GGGCGGC` has a 7-mer Z-score of 0.329.
For `AACAUCG`, the 7-mer Z-score was 0.298.
The 7-mer Z-score of `UAUACGC` is reported as -0.231.
For `AUGCUUC`, the 7-mer Z-score was -0.335.
With `CCCUCUA` the 7-mer Z-score was -0.269.
For `UGGAUUG`, the 7-mer Z-score was -0.0536.
`GUUGGCU` has a 7-mer Z-score of -0.175.
With `UAGGCAA` the 7-mer Z-score was 0.231.
For `AAGGUGC`, the 7-mer Z-score was 0.108.
`GGGCUAU` has a 7-mer Z-score of 0.115.
The 7-mer Z-score of `GUUCACC` is reported as -0.365.

Sample 5 — technique: universal PBM; molecule type: double-stranded DNA, one strand shown; sample: in vitro; concentration: not given; direction: higher = stronger binding
Target: Sal-like protein 4, full length isoform B (SALL4, Homo sapiens, UniProt Q9UJQ4-2, residues 1-616)
Setting: 8-mer, flanks averaged, mean of replicates
Construct (chain): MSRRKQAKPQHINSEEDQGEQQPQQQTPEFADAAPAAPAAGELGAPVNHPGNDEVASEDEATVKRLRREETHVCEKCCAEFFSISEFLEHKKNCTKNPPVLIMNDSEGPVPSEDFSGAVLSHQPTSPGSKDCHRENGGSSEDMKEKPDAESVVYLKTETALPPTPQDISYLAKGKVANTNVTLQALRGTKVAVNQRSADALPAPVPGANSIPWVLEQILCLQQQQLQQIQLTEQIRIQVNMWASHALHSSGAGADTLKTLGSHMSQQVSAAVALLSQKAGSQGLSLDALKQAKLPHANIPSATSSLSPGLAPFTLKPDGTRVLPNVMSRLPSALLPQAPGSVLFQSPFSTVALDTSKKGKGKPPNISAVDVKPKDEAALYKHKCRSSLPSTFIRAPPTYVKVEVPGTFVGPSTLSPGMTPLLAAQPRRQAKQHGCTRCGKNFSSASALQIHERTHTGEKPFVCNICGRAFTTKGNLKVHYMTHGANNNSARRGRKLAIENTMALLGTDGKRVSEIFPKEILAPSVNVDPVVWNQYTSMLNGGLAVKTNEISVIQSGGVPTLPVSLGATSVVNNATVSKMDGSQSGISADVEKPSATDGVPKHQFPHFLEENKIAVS
For `CGGAAATA`, the E-score was 0.231.
`GCCTCAGC` gave an E-score of -0.22.
With `ACCTACAA` the E-score was 0.18.
`ACGAGGAC` has an E-score of -0.174.
`CGACCGCA` has an E-score of -0.143.
For `ACTCCTAA`, the E-score was -0.0218.
`CCGCACAA` gave an E-score of 0.0228.
For `TAAATGAA`, the E-score was 0.24.
`AGGGCAGG` gave an E-score of -0.247.
`CTGGTAAA` gave an E-score of 0.0913.
`CAGGACTA` has an E-score of -0.084.
`CACGTTCG` has an E-score of -0.0779.
The E-score of `CTAGCGTA` is reported as -0.0147.
With `GTGGGTCA` the E-score was -0.115.
`GCTTACCC` gave an E-score of -0.181.
For `AAGTCAGT`, the E-score was 0.00848.
`ATAACCAG` gave an E-score of 0.248.
`ACCTGACC` has an E-score of -0.151.
The E-score of `CCCATAAA` is reported as 0.142.
`AACGTCCA` has an E-score of 0.0998.
The E-score of `CCGCGCGA` is reported as -0.225.
